Values quoted from earlier work that unrelated publications cite.
Each line is one published result; not all experiments were run side by side. ± marks the error that the study gave.

Molecule	test system	conditions	how to read	endpoint	value
COc1cccc(-c2c(C)n(Cc3c(F)cccc3C(F)(F)F)c(=O)n(C[C@H](NCCCC(=O)O)c3ccccc3)c2=O)c1F	human	150 mg single dose, together with: rifampin 600 mg once daily, day 1	baseline: with rifampin over alone	Cmax ratio	4.37
CNC(=O)c1cc(Oc2ccc(NC(=O)Nc3ccc(Cl)c(C(F)(F)F)c3)cc2)ccn1	human, plasma	concentration not given, total concentration	–	Cmax	6.2 µM
octreotide	human	oral, 20 mg capsule	baseline: fasting	Cmax reduction by high-fat meal	~90%
CC(C)NCC(O)c1ccc(O)c(O)c1 (stereo not shown)	human, plasma	concentration not given, total concentration	–	Cmax	0.0027 µM
CCCCC(CC)COC(=O)C=Cc1ccc(OC)cc1 (stereo not shown)	human, plasma	topical, 4 times daily days 2-4, day 4, sunscreen	–	Cmax geometric mean	7.9 ng/mL
CC(=O)O[C@@]12CO[C@@H]1C[C@H](O)[C@@]1(C)C(=O)[C@H](O)C3=C(C)[C@@H](OC(=O)[C@H](O)[C@@H](NC(=O)OC(C)(C)C)c4ccccc4)C[C@@](O)([C@@H](OC(=O)c4ccccc4)[C@H]21)C3(C)C	human, plasma	concentration not given, total concentration	–	Cmax	3.7 µM
C[C@H](Cn1cnc2c(N)ncnc21)OCP(=O)(O)O	human	dose not given, switch from TDF 300 mg to TAF 10 mg regimen	baseline: before switch	Cmax decrease	89.8%
CCCCC(CC)COC(=O)C(C#N)=C(c1ccccc1)c1ccccc1 (stereo not shown)	human, plasma	topical, 2 mg/cm^2 to 75% body surface, day 1, sunscreen	–	Cmax geometric mean	1.5 ng/mL
COc1cc(N2CCC(N3CCN(C)CC3)CC2)ccc1Nc1ncc(Cl)c(Nc2ccccc2P(C)(C)=O)n1	healthy human subjects	oral, 180 mg single dose, together with: high-fat meal	baseline: fasted	Cmax reduction	~24%
CN1CCN(c2ccc3nc(-c4c(N)c5c(F)cccc5[nH]c4=O)[nH]c3c2)CC1	human	oral, 500 mg once daily, day 15	–	Cmax	267 ± 178 ng/mL

Excerpt of the above:
Molecule	test system	conditions	how to read	endpoint	value
CNC(=O)c1cc(Oc2ccc(NC(=O)Nc3ccc(Cl)c(C(F)(F)F)c3)cc2)ccn1	human, plasma	concentration not given, total concentration	–	Cmax	6.2 µM
